Measurements gathered from unrelated publications.
Each line is one published result; not all experiments were run side by side. ± gives the spread as reported.
BCHE: Cholinesterase (BCHE, Homo sapiens, UniProt P06276)
inhA: Enoyl-[acyl-carrier-protein] reductase [NADH] (inhA, Mycobacterium tuberculosis, UniProt P9WGR1)
4'-phosphopantetheinyl transferase PptT: 4'-phosphopantetheinyl transferase PptT (Mycobacterium tuberculosis, UniProt O33336)

Amino acid sequences for entries named in this document (tags omitted). Residues count along the entry.
UniProt P06276, whole entry, looked up: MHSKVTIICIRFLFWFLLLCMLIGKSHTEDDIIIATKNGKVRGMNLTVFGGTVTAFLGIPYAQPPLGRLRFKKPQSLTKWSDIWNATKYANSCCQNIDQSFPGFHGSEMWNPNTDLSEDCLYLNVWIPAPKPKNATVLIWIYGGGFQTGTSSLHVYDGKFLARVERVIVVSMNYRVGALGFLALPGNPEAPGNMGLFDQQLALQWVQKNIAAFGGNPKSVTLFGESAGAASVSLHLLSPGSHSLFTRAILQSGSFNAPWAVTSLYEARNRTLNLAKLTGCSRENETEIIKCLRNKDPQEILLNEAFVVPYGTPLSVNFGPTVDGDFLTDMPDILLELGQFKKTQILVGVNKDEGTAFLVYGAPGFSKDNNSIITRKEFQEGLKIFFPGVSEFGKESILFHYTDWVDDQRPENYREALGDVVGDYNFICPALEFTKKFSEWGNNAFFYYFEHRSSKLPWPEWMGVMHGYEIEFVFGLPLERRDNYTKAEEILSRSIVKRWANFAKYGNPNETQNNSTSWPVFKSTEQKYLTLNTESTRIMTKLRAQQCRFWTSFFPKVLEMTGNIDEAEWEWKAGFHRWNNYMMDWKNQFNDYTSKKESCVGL
UniProt P9WGR1, whole entry: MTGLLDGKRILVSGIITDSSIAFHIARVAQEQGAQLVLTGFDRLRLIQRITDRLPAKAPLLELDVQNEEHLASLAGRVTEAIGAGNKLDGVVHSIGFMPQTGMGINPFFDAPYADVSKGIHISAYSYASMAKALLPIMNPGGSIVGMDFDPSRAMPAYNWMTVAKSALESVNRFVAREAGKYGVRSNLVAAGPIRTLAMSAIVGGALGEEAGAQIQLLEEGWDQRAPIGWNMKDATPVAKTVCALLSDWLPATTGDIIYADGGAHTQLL
UniProt O33336, whole entry: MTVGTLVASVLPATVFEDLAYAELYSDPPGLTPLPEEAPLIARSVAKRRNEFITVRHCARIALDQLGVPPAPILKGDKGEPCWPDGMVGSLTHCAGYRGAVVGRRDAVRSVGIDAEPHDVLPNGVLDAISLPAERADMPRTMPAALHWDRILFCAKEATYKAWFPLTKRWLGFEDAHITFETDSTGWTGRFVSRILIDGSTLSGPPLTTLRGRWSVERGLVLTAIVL
UniProt P36544, 23-502 limits assumed: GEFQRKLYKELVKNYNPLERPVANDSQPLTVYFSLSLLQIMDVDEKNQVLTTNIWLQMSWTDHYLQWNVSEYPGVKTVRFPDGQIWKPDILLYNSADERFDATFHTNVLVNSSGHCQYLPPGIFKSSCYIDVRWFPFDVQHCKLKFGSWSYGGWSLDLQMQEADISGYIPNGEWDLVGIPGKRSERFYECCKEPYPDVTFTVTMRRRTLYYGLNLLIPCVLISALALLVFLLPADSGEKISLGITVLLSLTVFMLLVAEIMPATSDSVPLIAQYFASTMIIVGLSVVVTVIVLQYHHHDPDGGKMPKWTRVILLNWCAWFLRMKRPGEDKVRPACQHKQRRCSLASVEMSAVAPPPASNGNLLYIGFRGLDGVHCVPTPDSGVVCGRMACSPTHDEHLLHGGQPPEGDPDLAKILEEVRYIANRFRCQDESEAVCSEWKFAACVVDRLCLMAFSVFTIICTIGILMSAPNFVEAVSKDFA
UniProt P22303, whole entry, looked up: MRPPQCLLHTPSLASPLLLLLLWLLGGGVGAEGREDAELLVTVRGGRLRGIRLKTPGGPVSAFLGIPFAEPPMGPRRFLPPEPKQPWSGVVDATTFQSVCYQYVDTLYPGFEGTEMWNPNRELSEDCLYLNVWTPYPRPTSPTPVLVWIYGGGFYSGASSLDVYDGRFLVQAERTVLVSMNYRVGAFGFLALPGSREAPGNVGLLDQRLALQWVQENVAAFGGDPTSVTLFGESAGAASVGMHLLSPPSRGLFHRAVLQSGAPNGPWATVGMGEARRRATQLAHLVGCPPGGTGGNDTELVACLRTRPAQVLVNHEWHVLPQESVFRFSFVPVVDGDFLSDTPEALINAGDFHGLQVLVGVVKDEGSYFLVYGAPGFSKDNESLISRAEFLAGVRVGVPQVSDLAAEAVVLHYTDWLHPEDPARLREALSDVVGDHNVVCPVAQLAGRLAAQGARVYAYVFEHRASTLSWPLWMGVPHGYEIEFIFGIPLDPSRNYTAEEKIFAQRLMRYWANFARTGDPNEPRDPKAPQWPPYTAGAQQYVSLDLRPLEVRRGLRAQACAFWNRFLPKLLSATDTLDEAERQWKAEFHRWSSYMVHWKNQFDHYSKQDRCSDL
UniProt P07711, 114-333 limits assumed: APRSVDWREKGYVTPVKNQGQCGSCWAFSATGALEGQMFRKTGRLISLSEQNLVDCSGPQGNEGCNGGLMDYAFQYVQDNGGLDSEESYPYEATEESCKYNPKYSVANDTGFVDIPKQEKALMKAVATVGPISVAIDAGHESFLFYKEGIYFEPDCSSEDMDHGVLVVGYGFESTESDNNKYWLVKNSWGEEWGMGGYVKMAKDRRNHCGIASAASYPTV
UniProt O42275, whole entry, looked up: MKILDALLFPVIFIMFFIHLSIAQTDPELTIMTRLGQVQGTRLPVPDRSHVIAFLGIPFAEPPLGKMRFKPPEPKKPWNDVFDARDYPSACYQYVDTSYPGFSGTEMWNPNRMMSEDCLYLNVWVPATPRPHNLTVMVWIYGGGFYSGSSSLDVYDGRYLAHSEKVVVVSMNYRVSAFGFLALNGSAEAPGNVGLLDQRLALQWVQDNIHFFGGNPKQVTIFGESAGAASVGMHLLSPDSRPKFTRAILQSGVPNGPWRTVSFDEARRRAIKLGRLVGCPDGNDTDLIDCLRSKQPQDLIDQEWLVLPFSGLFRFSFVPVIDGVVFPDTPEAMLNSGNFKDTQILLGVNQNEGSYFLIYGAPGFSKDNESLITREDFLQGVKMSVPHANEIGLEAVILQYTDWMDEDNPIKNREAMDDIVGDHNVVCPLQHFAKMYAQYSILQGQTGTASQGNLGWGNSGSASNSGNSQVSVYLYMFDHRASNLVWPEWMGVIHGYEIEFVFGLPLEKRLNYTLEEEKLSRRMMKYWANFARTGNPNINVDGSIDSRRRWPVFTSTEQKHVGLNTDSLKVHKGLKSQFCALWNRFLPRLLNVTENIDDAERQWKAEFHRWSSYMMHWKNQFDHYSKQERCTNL
UniProt Q5M848, whole entry: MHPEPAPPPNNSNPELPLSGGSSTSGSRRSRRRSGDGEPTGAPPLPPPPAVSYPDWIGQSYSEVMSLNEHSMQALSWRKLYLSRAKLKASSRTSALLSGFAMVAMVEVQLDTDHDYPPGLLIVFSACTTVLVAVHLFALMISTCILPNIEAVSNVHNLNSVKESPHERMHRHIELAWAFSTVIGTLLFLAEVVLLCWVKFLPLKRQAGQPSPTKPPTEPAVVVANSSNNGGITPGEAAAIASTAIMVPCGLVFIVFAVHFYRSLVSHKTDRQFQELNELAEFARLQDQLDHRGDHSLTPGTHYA
UniProt Q9NUW8, whole entry: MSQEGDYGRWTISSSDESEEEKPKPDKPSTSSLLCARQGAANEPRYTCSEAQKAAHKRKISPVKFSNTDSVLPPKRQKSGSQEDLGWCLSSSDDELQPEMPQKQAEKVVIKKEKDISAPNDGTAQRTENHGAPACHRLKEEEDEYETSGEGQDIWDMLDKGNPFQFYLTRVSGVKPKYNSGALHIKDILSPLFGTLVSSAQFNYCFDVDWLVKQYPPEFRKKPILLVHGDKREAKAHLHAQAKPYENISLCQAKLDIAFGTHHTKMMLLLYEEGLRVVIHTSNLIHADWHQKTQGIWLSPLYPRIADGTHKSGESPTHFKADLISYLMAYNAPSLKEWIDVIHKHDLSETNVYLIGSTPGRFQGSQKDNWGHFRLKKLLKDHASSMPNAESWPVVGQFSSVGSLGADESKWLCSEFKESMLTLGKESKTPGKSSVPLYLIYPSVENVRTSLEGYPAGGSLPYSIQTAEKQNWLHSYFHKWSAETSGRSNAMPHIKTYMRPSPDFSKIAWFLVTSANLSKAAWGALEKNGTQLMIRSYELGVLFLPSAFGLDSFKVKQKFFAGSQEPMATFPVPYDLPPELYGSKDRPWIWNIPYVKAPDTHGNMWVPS
UniProt P23977, whole entry: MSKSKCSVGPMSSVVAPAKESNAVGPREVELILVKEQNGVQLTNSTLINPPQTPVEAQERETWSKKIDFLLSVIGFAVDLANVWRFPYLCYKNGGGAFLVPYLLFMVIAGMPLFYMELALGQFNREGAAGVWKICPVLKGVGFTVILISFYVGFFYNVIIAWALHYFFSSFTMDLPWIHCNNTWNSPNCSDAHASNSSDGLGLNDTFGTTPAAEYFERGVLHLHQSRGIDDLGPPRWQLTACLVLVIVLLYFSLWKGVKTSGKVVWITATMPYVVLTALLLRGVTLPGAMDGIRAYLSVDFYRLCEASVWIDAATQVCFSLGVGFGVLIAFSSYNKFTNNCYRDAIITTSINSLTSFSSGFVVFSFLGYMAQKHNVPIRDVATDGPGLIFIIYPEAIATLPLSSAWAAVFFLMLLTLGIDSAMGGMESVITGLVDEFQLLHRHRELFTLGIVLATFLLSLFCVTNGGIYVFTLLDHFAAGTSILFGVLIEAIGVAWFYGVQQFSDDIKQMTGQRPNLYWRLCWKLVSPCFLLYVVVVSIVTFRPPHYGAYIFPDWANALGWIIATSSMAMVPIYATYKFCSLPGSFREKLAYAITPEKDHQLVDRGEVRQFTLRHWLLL

Structure (SMILES)	target	test	system	setting	IC50 [µM]
CC(C)(C)c1cc[n+](COC[n+]2ccc(C(C)(C)C)cc2)cc1	BCHE	enzyme activity, inhibitor	–	–	75 ± 12
CCCCc1ccc(Oc2ccc(Cl)cc2Cl)c(O)c1	inhA	inhibitor	–	–	0.055 ± 0.02
C[C@@H]1NC(=O)[C@H](CCCNC(=N)N)NC(=O)[C@H](CCCNC(=N)N)NC(=O)[C@@H]2CCCN2C(=O)[C@H](CO)NC(=O)[C@@H]2CSSC[C@H](NC(=O)CN)C(=O)N[C@@H](CSSC[C@@H](C(N)=O)NC(=O)[C@H](CO)NC(=O)[C@H](CCCNC(=N)N)NC1=O)C(=O)N[C@@H](CO)C(=O)N[C@@H](Cc1c[nH]cn1)C(=O)N1CCC[C@H]1C(=O)N[C@@H](C)C(=O)N2	Neuronal acetylcholine receptor subunit alpha-7 (CHRNA7, Homo sapiens, UniProt P36544)	ion current, antagonist, two-electrode voltage clamp	Xenopus oocytes	holding -70 mV, together with: 100 µM acetylcholine	2.12
c1cc[n+](CCCCCCCCCC[n+]2cccc3ccccc32)cc1	Acetylcholinesterase (ACHE, Homo sapiens, UniProt P22303)	enzyme activity, inhibitor	–	–	0.005 ± 0.001
CC[C@H](C)[C@@H]1NC(=O)[C@H](Cc2c[nH]cn2)NC(=O)[C@H](Cc2ccc(O)cc2)NC(=O)[C@H](Cc2ccc(O)cc2)NC(=O)[C@H](C(C)C)NC(=O)[C@H](Cc2c[nH]cn2)NC(=O)[C@H](CCCCN)NC(=O)[C@H]([C@@H](C)O)NC(=O)[C@H](Cc2ccc(O)cc2)NC(=O)CSC[C@@H](C(N)=O)NC(=O)[C@H](Cc2ccc(O)cc2)NC(=O)[C@H](C(C)C)NC(=O)[C@H](CC(C)C)NC(=O)[C@H](Cc2ccc(O)cc2)NC(=O)[C@H]([C@@H](C)CC)NC(=O)[C@H]([C@@H](C)O)NC1=O	Procathepsin L (CTSL, Homo sapiens, UniProt P07711)	enzyme activity, inhibitor	–	–	5.7 ± 0.45
c1cc[n+](CCCCCCCCCC[n+]2ccccc2)cc1	BCHE	enzyme activity, inhibitor	–	–	5 ± 0.8
Oc1cc(-c2ccccc2)ccc1Oc1ccc(Cl)cc1Cl	inhA	inhibitor	–	–	> 10
Cc1ccc(NC2CCCC(C(=O)N3CCc4ccccc4C3)C2)cc1 (stereo not shown)	Acetylcholinesterase (ache, Electrophorus electricus, UniProt O42275)	enzyme activity, inhibitor, Ellman	–	10 min preincubation, pH 8, 23 °C	393 ± 27
O=c1c2cc(CO)ccc2[nH]c(=S)n1Cc1cccnc1	4'-phosphopantetheinyl transferase PptT	enzyme activity, inhibitor, fluorescence polarization	–	–	0.36
O=C(Nc1c(F)cncc1F)c1nn(Cc2ccc(Cl)cc2Cl)c2ccccc12	Calcium release-activated calcium channel protein 1, with STIM1 (Rattus norvegicus, UniProt Q5M848)	Ca2+ influx, inhibitor	RBL-2H3	together with: thapsigargin 1 µM	> 30
N#Cc1ccc(-c2ccc(COCCc3ccc(-c4nc5cc(-c6ccccc6)ccn5c4Nc4ccc(C(=O)O)cc4)cc3)cc2)nc1	Tyrosyl-DNA phosphodiesterase 1 (TDP1, Homo sapiens, UniProt Q9NUW8)	enzyme activity, inhibitor	–	–	2.75 ± 0.25
O=C(CC1CC2CCC1C2)Nc1nnc(-c2ccccc2Cl)s1 (stereo not shown)	inhA	–	–	–	4 ± 1
Oc1cc(Cc2cccnc2)ccc1Oc1ccc(Cl)cc1Cl	inhA	inhibitor	–	–	0.042 ± 0.01
C#CCN(Cc1ccc2nc(C)[nH]c(=O)c2c1)c1ccc(C(=O)N[C@@H](CCC(=O)OCC)C(=O)OCC)cc1	4'-phosphopantetheinyl transferase PptT	enzyme activity, inhibitor, fluorescence polarization	–	–	10
Cc1cccc(-c2ccc(Oc3ccc(Cl)cc3Cl)c(O)c2)c1	inhA	inhibitor	–	–	0.87 ± 0.11
CCCNC(C)Cc1ccccc1 (stereo not shown)	Sodium-dependent dopamine transporter (Slc6a3, Rattus norvegicus, UniProt P23977)	dopamine uptake, inhibitor	rat brain synaptosomes	–	1.01 ± 0.101

Some of these lines once more:
Structure (SMILES)	target	test	system	setting	IC50 [µM]
CC(C)(C)c1cc[n+](COC[n+]2ccc(C(C)(C)C)cc2)cc1	BCHE	enzyme activity, inhibitor	–	–	75 ± 12
O=c1c2cc(CO)ccc2[nH]c(=S)n1Cc1cccnc1	4'-phosphopantetheinyl transferase PptT	enzyme activity, inhibitor, fluorescence polarization	–	–	0.36
